Experimental data of several laboratories.
A part holds a random share of what one study measured.

Block 1 — method: protein-binding microarray; form: double-stranded DNA, one strand shown; medium: in vitro; tested at: 250 nM; setting: 60-bp whole probe; added: salmon DNA 0.4 mg/ml; reference: random background probes; direction: higher = stronger binding; all sequences stand within: GCCTAGCAC … GTCTTGATTCGCTTGACGCTGCTG
Target: Interferon regulatory factor 7, full length, phosphomimetic (IRF7, Homo sapiens, UniProt Q92985, residues 1-503, S101K/S471D/S472D/S475D/S476D/S477D/S483D/S484D/S487D)
Target sequence (chain): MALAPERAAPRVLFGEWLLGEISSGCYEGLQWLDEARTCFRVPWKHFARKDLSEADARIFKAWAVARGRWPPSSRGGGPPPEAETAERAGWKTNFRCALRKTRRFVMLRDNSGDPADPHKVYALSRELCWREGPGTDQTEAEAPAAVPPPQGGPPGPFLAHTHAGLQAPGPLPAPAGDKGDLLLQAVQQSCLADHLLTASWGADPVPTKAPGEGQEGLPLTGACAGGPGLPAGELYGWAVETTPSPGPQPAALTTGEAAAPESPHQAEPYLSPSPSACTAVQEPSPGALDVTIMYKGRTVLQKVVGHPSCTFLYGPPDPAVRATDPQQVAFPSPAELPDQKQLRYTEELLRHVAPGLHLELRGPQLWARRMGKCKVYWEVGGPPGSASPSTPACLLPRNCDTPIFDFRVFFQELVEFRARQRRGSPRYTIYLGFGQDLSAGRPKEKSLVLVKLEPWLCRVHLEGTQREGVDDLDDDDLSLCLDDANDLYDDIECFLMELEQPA
`TCACACTTCCTTCTGCCACTGTGCTAG` gave a log fluorescence of 0.314 z-score.
`GACGGAATCCTACTGCTGACGTGCTAG` has a log fluorescence of -0.535 z-score.
`AACGGTCTCCTTTTCCTGACGTGCTAG` gave a log fluorescence of 1.49 z-score.
`TCAAAACTCGTATGTGACACTGTGCTA` has a log fluorescence of 0.00777 z-score.
The log fluorescence of `TCATCATTCCTGATCTCACTGTGCTAG` is reported as 0.689 z-score.
`CTTCTTTTTTTTCTTTAAAAGTGCTAG` gave a log fluorescence of 1.99 z-score.
The log fluorescence of `GACGATCTCAGTATGGAGACGTGCTAG` is reported as -0.34 z-score.
The log fluorescence of `TTAGGTTTCGACACAGGGTTAGTGCTA` is reported as 3.8 z-score.

Block 2 — method: protein-binding microarray; form: double-stranded DNA, one strand shown; medium: in vitro; tested at: 0.8 µM; setting: whole 60-bp probe, no competitor; direction: higher = stronger binding
Target: Centromere-binding protein 1, full length, N-terminal tag (CBF1, Saccharomyces cerevisiae, UniProt P17106, residues 1-351)
Chain of UniProt P17106 (whole entry, looked up): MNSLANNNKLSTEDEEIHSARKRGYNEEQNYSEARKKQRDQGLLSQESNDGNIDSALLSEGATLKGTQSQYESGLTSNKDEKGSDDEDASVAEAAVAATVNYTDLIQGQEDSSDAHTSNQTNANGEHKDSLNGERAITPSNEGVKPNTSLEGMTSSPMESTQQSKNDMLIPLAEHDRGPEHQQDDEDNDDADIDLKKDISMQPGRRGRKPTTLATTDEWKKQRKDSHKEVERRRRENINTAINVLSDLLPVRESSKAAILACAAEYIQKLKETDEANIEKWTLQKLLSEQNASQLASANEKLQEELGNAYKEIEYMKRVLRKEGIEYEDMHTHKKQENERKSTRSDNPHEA
`CCTAACTACTATATACATGCGTGATAGCTTCGTACAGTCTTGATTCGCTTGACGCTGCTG` gave a fluorescence intensity of 601 a.u.
With `GAACTTCTTTGTTGTCACGCTTTTGTTATTTCCTAGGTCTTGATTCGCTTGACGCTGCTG` the fluorescence intensity was 1520 a.u.
`CTACTTATCAAGTGGCGTGCCACGGCATCTACCTTCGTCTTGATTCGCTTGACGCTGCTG` gave a fluorescence intensity of 752 a.u.
`CTAAATAATTAGTATCCCGTGATTTTGAGCTGTTTCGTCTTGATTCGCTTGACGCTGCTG` gave a fluorescence intensity of 1830 a.u.
`TGTACGAAGCTATTGGACATGACTATAGTAGTTAGGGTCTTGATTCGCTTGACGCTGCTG` gave a fluorescence intensity of 518 a.u.
The fluorescence intensity of `GAATGTCACCAACGTCACGAAGAAATGAGTCGGTAGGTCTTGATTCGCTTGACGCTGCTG` is reported as 625 a.u.
`CTACAGATGTCAGACAACGTGCAGCATCTTTTTTTCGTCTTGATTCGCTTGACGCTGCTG` gave a fluorescence intensity of 666 a.u.
For `TGTACGAAGCTATCCCACGGTACTATAGTAGTTAGGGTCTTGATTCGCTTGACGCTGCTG`, the fluorescence intensity was 505 a.u.

Block 3 — method: aptamer microarray, sandwich; form: DNA with 2'F-ANA; medium: in vitro; tested at: 200 nM; added: Cy3 exosite-II aptamer, 400 nM; direction: higher = stronger binding; oligonucleotide: GGTTGGTGTGGTTGG
Target: Prothrombin, mature alpha-thrombin (F2, Homo sapiens, UniProt P00734)
Setting: whole 15-mer aptamer, many near background
For `2'F-ANA at 1 3 7 8 9 12 14`, “mean fluorescence intensity” read 152 a.u.
Under “mean fluorescence intensity”, `2'F-ANA at 1 4 7 12 13 15` is recorded as 215 a.u.
Under “mean fluorescence intensity”, `2'F-ANA at 1 3 5 10 12 14` is recorded as 41.9 a.u.
Under “mean fluorescence intensity”, `2'F-ANA at 3 4 5 6 8 9 10 12` is recorded as 58.5 a.u.
`2'F-ANA at 5 7 8 9 10 11 12 15` — result for “mean fluorescence intensity”: 50.1 a.u.
For `2'F-ANA at 2 3 7 9 10 11 13 14 15`, “mean fluorescence intensity” read 266 a.u.
`2'F-ANA at 1 7 8 11 14`: “mean fluorescence intensity” 58.8 a.u.
Under “mean fluorescence intensity”, `2'F-ANA at 1 3 4 5 7 9 10 13 14` is recorded as 42.7 a.u.

Further values, each from its own experiment
`PhoQ, residues 284 288 289 292 302 303 AQGLTV` has a fold induction of 2.22 (PhoP, residues 12 14 15 18 19 LYHSL (Escherichia coli, UniProt P23836); Sort-seq, refers to: YFP reporter; E. coli; PhoQ-PhoP variant library, added: 10 µM Mg2+; reference: high Mg2+ state, higher = stronger signaling).
